Published values of several laboratories.
Lines come from different studies, so protocols differ. ± gives the spread as reported.
Kir3.1/Kir3.2: Kir3.1/Kir3.2 (Homo sapiens, UniProt P48051+P48549)
Sequence of UniProt P48051 (whole entry, looked up): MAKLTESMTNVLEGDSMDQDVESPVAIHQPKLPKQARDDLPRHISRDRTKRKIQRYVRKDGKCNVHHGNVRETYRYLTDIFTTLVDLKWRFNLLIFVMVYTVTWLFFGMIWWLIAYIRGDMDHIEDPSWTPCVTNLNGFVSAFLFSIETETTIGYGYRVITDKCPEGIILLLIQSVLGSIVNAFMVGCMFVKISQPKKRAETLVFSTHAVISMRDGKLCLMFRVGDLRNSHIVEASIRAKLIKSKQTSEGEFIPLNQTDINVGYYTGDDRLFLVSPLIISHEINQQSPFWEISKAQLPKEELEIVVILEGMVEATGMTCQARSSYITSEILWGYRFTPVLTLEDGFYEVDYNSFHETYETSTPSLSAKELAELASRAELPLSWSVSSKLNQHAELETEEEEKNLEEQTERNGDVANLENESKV
Sequence of UniProt P48549 (whole entry, looked up): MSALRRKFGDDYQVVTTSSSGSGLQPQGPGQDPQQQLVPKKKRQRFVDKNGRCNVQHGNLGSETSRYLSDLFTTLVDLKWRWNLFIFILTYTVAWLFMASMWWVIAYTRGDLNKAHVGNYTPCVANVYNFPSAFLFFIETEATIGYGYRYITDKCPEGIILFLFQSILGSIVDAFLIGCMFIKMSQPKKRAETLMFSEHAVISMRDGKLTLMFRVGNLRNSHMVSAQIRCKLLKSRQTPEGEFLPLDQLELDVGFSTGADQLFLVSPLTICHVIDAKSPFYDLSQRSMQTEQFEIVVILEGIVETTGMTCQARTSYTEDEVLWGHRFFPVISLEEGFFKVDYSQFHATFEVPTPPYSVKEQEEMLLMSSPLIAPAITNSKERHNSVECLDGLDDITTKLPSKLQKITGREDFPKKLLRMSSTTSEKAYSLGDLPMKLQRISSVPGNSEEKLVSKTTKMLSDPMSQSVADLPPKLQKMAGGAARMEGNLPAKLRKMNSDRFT
CDK9: Cyclin-dependent kinase 9 (CDK9, Homo sapiens, UniProt P50750)
Sequence of UniProt P50750 (whole entry, looked up): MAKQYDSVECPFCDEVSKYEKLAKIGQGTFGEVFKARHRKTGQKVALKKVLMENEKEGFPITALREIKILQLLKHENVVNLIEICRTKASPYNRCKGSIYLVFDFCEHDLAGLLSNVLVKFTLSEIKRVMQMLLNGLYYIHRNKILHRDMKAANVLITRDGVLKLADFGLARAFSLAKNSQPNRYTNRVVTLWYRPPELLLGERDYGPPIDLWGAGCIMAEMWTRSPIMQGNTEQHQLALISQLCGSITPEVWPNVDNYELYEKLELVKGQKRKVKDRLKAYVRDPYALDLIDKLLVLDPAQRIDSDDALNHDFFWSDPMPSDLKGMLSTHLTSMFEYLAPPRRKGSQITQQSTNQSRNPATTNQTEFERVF
USP51 ZnF-UBD domain: Ubiquitin carboxyl-terminal hydrolase 51, ZnF-UBD domain (USP51, Homo sapiens, UniProt Q70EK9)
Sequence of UniProt Q70EK9 (whole entry, looked up): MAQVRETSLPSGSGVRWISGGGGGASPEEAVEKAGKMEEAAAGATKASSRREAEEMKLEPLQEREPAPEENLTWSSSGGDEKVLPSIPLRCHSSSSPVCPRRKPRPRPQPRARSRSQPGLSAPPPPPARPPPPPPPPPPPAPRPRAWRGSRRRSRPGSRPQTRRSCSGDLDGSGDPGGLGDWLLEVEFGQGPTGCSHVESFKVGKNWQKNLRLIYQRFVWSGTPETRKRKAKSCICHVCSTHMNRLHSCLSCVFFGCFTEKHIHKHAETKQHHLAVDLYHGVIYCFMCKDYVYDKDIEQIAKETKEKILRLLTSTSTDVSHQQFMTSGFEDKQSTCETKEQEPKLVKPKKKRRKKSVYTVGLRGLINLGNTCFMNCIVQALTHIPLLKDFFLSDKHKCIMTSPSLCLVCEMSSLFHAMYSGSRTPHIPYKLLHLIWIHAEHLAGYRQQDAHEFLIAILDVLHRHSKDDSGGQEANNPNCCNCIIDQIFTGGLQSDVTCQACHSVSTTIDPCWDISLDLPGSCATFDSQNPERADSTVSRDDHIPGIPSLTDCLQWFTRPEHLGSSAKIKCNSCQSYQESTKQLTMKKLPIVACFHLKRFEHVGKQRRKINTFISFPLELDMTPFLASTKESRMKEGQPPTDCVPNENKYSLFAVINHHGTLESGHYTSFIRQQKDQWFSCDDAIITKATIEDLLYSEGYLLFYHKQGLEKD
GAP50: Glideosome-associated protein 50 (GAP50, Plasmodium falciparum, UniProt Q8I2X3)
Sequence of UniProt Q8I2X3 (whole entry, looked up): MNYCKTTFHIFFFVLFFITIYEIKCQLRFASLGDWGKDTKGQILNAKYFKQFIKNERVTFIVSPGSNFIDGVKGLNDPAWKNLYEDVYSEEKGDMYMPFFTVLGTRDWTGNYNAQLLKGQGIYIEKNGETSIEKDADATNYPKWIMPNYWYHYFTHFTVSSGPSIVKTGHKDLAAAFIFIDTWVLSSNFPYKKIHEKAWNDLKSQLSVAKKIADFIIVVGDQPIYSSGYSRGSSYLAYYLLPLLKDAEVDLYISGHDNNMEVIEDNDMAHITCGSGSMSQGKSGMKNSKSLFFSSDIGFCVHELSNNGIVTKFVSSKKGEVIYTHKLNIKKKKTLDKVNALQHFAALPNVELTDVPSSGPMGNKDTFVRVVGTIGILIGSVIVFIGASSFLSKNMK
Sequence of UniProt P10636 (whole entry, looked up): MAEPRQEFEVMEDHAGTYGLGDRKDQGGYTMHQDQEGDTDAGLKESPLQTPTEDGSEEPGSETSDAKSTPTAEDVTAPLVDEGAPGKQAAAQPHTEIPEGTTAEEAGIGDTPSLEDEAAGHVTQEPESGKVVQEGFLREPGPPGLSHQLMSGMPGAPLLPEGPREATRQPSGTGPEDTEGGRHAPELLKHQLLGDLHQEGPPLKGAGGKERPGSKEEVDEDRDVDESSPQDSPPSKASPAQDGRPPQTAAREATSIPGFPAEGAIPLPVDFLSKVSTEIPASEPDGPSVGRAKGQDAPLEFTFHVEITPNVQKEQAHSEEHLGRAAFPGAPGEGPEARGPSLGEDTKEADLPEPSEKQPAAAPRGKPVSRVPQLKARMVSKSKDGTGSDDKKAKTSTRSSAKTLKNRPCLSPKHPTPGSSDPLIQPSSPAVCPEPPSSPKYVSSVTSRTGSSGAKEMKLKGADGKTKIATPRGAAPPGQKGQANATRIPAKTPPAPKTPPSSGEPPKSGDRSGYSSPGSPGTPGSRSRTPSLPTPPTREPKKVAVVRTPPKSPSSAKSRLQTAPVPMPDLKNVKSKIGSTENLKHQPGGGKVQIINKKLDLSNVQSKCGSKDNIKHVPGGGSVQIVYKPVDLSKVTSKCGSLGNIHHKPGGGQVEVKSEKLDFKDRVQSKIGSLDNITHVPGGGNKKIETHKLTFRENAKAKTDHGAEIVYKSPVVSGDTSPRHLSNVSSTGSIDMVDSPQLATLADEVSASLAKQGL
Sequence of UniProt Q96RR4 (whole entry, looked up): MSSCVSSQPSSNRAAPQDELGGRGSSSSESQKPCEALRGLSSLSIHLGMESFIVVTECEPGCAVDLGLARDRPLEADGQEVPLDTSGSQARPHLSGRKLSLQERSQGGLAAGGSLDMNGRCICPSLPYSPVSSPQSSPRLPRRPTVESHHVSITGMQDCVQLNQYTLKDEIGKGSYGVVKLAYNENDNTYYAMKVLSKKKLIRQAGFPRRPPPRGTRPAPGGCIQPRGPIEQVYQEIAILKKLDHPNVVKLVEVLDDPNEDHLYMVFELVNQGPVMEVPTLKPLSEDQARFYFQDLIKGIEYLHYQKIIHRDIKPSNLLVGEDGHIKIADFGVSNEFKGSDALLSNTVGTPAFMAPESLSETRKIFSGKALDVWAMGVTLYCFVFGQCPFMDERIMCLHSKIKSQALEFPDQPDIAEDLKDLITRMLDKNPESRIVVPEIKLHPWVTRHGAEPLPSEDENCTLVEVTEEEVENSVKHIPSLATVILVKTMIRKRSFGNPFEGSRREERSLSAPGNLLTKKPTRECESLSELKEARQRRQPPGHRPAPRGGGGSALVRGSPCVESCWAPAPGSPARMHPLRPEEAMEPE
Sequence of UniProt Q9NNX6 (whole entry, looked up): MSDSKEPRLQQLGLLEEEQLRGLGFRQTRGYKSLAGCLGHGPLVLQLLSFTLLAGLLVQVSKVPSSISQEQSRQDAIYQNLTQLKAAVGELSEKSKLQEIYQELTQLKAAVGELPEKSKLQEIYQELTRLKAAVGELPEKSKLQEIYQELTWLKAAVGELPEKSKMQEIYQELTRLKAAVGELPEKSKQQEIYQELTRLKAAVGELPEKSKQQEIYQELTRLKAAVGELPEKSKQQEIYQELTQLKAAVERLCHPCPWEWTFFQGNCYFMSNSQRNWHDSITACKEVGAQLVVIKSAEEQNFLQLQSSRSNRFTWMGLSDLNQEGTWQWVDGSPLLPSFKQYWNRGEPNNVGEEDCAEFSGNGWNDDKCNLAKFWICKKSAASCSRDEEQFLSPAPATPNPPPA
Sequence of UniProt P15407 (whole entry, looked up): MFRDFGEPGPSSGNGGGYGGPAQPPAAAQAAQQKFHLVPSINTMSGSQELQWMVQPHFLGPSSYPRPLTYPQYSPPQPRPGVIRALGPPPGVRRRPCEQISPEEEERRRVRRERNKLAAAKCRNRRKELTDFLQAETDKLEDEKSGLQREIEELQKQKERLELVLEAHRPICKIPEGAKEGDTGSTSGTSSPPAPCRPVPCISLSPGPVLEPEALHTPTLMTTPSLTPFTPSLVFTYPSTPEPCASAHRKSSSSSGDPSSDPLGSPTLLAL
Sequence of UniProt P05412 (whole entry, looked up): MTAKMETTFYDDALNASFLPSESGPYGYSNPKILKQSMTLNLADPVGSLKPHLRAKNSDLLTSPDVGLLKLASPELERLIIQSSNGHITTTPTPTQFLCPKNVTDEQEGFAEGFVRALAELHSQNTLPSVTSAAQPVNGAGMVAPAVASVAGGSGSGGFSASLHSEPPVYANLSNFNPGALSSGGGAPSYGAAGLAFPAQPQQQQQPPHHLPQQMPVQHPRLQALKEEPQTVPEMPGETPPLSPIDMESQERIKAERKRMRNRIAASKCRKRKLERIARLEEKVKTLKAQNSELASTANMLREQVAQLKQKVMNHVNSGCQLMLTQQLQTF

For `CCCCCCCCC=O`, the Ki was greater than 50 µM (uncharacterized protein (Bradysia odoriphaga, UniProt A0A2S0X9G4); binding, competitive fluorescence displacement).
The EC50 of `CCc1cc(NC(=O)COc2cccc(Cl)c2Cl)n(C2CCOCC2)n1` is reported as 0.19 µM (Kir3.1/Kir3.2; activator, thallium flux; HEK293).
`CC(C)(C)c1cnc(CSc2cnc(NC(=O)C3CCN(CC(=O)NCCOCCOCCOCCNc4cccc5c4C(=O)N(C4CCC(=O)NC4=O)C5=O)CC3)s2)o1` (centres unmarked) gave a DC50 of 0.0474 ± 0.0216 µM (CDK9; degrader, Western blot; TC-71).
`CSc1nc(C)c(CCC(=O)O)c(=O)[nH]1` gave a Kd of greater than 1000 µM (USP51 ZnF-UBD domain).
The IC50 of `CCCCCCCC/C=C\CCCCCCCCCCCCC` is reported as greater than 50 µM (uncharacterized protein (Drosophila suzukii, UniProt A0AB39ZCT4); binding, bis-ANS competition fluorescence; pH 7.4, added: bis-ANS).
The EC50 of `COc1c(Nc2cc(C(F)(F)F)cc(C(F)(F)F)c2)c(=O)c1=O` is reported as 144 µM (CD209 antigen (CD209, Homo sapiens, UniProt Q9NNX6); binding, grating-coupled interferometry; Man(α1,2)Man-PEG3 chip; 2 h, no Tris).
`O=C(COc1ccc(C(F)(F)F)cc1C(F)(F)F)Nc1cc(C2CCC2)nn1C1CCOCC1` gave an EC50 of 9.2 µM (Kir3.1/Kir3.2; activator, thallium flux; HEK293).
`O=C(O)Cc1nc2ccccc2[nH]1` has a Kd of greater than 1000 µM (USP51 ZnF-UBD domain).
For `CC(C)(C)c1cnc(CSc2cnc(NC(=O)C3CCN(C(=O)CCCCCCCN4Cc5cc6c(cc5C4)C(=O)N(C4CCC(=O)NC4=O)C6=O)CC3)s2)o1` (centres unmarked), the DC50 was less than 0.01 µM (CDK9; degrader, Western blot; RH5 rhabdomyosarcoma; 6 h).
The Kd of `CNc1nnc(Sc2cnn(-c3ccccc3)c(=O)c2Cl)s1` is reported as 84.4 µM (GAP50; binding, surface plasmon resonance; 1:1 binding model).
`C[C@H](N)C(=O)N[C@H](CCC(=O)O)C(N)=O` gave a Kd of 1.22 ± 0.155 µM (Nucleotide-binding oligomerization domain-containing protein 2, LRR domain (NOD2, Homo sapiens, UniProt Q9HC29, R877A); surface plasmon resonance; LRR mutant R877A).
`CCCCCCCCCCCCCC` has a Ki of greater than 50 µM (uncharacterized protein (Bradysia odoriphaga, UniProt A0A2S0X9G4); binding, competitive fluorescence displacement).
The DC50 of `CN(CCCCCCNC(=O)CNc1cccc2c1C(=O)N(C1CCC(=O)NC1=O)C2=O)Cc1cn(Cc2ccc(C(=O)NO)cc2)c2ccccc12` (centres unmarked) is reported as 0.05 ± 0.0027 µM (Polyamine deacetylase HDAC10 (HDAC10, Homo sapiens, UniProt Q969S8); degrader, western blot; MM1.S cells; 24 h).
With `COc1ccc2nc(/N=N/c3ccc(N(C)C)cc3)sc2c1` the AC50 was 0.048 ± 0.004 µM (Microtubule-associated protein tau, paired helical filaments (MAPT, Homo sapiens, UniProt P10636); thioflavin S displacement, fluorescence; patient-derived PHF tau; added: thioflavin S).
For `O=S(=O)(Nc1ccccc1)c1ccc(NC(=S)Nc2ccccc2)cc1`, the Kd was 2.61 µM (GAP50; binding, surface plasmon resonance; 1:1 binding model).
With `CC[C@@H]1[C@H](F)C(=O)N[C@@H]1COc1nccc2cc(C(N)=O)c(OC)cc12` the IC50 was 3.8 µM (Calcium/calmodulin-dependent protein kinase kinase 2 (CAMKK2, Homo sapiens, UniProt Q96RR4); ATP-site probe binding, inhibitor, ActivX ATP probe profiling; THP-1 cell lysate; probe site Lys1).
`C[C@@H](c1cc(Cl)cc(Cl)c1)N(C)c1ncc2c(N)nc(N)nc2n1` gave a Kd of 0.000912 µM (GAP50; binding, surface plasmon resonance; 1:1 binding model).
`O=C(O)CNc1ncnc2ccccc12` gave a Kd of greater than 1000 µM (USP51 ZnF-UBD domain).
`CC(C)Cn1c(=O)n(C)c(=O)c2c(-c3cncn3C)n(Cc3cccc4ccccc34)nc21` gave a Kd of 7.56 µM (GAP50; binding, surface plasmon resonance; 1:1 binding model).
`O=C(COc1ccc(Cl)cc1Cl)Nc1cc(C2CCC2)nn1CC(F)(F)F` has an EC50 of greater than 10 µM (Kir3.1/Kir3.2; activator, thallium flux; HEK293).
With `C[C@H]1[C@@H](c2cccc(C(F)(F)F)c2)OC(=O)N1C(=O)NCc1cncc2ccccc12` the Kd was 55.3 µM (GAP50; binding, surface plasmon resonance; 1:1 binding model).
For `CCCCCC/C=C\CCCCCCCCCCOC(C)=O`, the IC50 was greater than 50 µM (uncharacterized protein (Drosophila suzukii, UniProt A0AB39ZCT4); binding, bis-ANS competition fluorescence; pH 7.4, added: bis-ANS).
For `CC(C)(C)c1cnc(CSc2cnc(NC(=O)C3CCN(C(=O)CCCCCN4Cc5cc6c(cc5C4)C(=O)N(C4CCC(=O)NC4=O)C6=O)CC3)s2)o1` (centres unmarked), the DC50 was 0.0015 ± 0.0004 µM (CDK9; degrader, Western blot; TC-71).
The Kd of `O=C(NC1CC1)c1ccc(N2CCOc3ccc(Cl)cc32)s1` is reported as 96.8 µM (GAP50; binding, surface plasmon resonance; 1:1 binding model).
With `O=C(O)CCC(=O)N1CCc2ccccc21` the Kd was greater than 1000 µM (USP51 ZnF-UBD domain).
`NC(=O)c1ccc[n+]([C@@H]2O[C@H](COP(=O)(O)OP(=O)(O)OC[C@H]3O[C@@H](n4cnc5c(N)ncnc54)[C@H](OP(=O)(O)O)[C@@H]3O)[C@@H](O)[C@H]2O)c1` has a Ki of 1.39 ± 0.23 µM (NADPH--cytochrome P450 reductase (Rattus norvegicus, UniProt P00388, del2-56/del677-678); cytochrome c reduction, competitive inhibitor; W677X mutant, added: NADPH).
With `CCc1cc(NC(=O)COc2ccc(C(F)(F)F)cc2C(F)(F)F)n(CC(F)(F)F)n1` the EC50 was 0.89 µM (Kir3.1/Kir3.2; activator, thallium flux; HEK293).
The Ki of `C=C(C)[C@H]1CC=C(C)CC1` is reported as greater than 50 µM (uncharacterized protein (Bradysia odoriphaga, UniProt A0A2S0X9G4); binding, competitive fluorescence displacement).
For `Oc1cccc(C(Nc2nccs2)c2ccc3cccnc3c2O)c1` (centres unmarked), the Kd was 5.78 µM (GAP50; binding, surface plasmon resonance).
With `NC(=O)[C@H]1CCCN1C(=O)CCC(=O)O` the Kd was greater than 1000 µM (USP51 ZnF-UBD domain).
For `COc1ccc(/C=C/c2ccc(/C=C/c3ccc(OC)c(C(=O)O)c3)c(I)c2)cc1C(=O)O`, the AC50 was greater than 10 µM (Microtubule-associated protein tau, fibrils (MAPT, Homo sapiens, UniProt P10636); binding; synthetic 2N4R tau filaments 1 µM; added: thioflavin S).
For `Cn1cc(-c2ccc(-c3cncc(Cl)c3N3CCC4(CCNC4=O)CC3)cc2)cn1`, “log2 fold change” read -1.17 (COLO 205; gene expression, microarray, item: LY9 mRNA; concentration not given, 6 h; relative to: untreated cells).
The DC50 of `CC(C)(C)c1cnc(CSc2cnc(NC(=O)C3CCN(C(=O)CCCCCCN4Cc5cc6c(cc5C4)C(=O)N(C4CCC(=O)NC4=O)C6=O)CC3)s2)o1` (centres unmarked) is reported as less than 0.01 µM (CDK9; degrader, Western blot; U-87 MG glioblastoma; 6 h).
`O=C(O)CSc1nnc(NC(=O)COc2ccccc2)s1` gave a Kd of greater than 1000 µM (USP51 ZnF-UBD domain).
The Kd of `O=C(O)c1cc(-c2ccc(Br)cc2)nc2ccc(Cl)cc12` is reported as 9.3 µM (GAP50; binding, surface plasmon resonance; 1:1 binding model).
For `CCc1cc(NC(=O)COc2ccc(Cl)cc2Cl)n(C2CCC(F)(F)CC2)n1`, the EC50 was 0.025 µM (Kir3.1/Kir3.2; activator, thallium flux; HEK293).
`CCCCCCCC(=O)OCC` gave an IC50 of greater than 50 µM (uncharacterized protein (Drosophila suzukii, UniProt A0AB39ZGK5); binding, bis-ANS competition fluorescence; pH 7.4, added: bis-ANS).
For `Cc1cc(NC(=O)CNC2CCNCC2)n(C2CCS(=O)(=O)C2)n1` (centres unmarked), the EC50 was greater than 10 µM (Kir3.1/Kir3.2; activator, thallium flux; HEK293).
For `CC1=C(C=O)C(C)(C)CCC1`, the IC50 was greater than 50 µM (uncharacterized protein (Drosophila suzukii, UniProt A0AB39ZCT4); binding, bis-ANS competition fluorescence; pH 7.4, added: bis-ANS).
`O=C(O)CCn1cccn1` has a Kd of greater than 1000 µM (USP51 ZnF-UBD domain).
The EC50 of `O=C(COc1ccc(C(F)(F)F)cc1C(F)(F)F)Nc1cc(C2CC2)nn1C1CCC(F)(F)CC1` is reported as 1.51 µM (Kir3.1/Kir3.2; activator, thallium flux; HEK293).
With `CN1CCN(c2ccc(Nc3ncc4cc(C#N)c(=O)n(C5CCCC5)c4n3)cc2)CC1` the IC50 was 0.688 µM (Mitogen-activated protein kinase kinase kinase kinase 2 (MAP4K2, Homo sapiens, UniProt Q12851)).
`O=C(O)Cn1ccc2ccccc2c1=O` has a Kd of greater than 1000 µM (USP51 ZnF-UBD domain).
For `O=C(CCc1cc(C(=O)c2ccc(OC3CCCC3)cc2O)ccc1OCc1ccc2c(O)noc2c1)NCCOCCOCCOCCOCCOCCOCCNc1cccc2c1C(=O)N(C1CCC(=O)NC1=O)C2=O` (centres unmarked), the DC50 was 4.9 µM (JUN/FOSL1 (Homo sapiens, UniProt P05412+P15407); degrader, western blot; UMSCC1 cells).

For quick reference, copied from above:
With `CC[C@@H]1[C@H](F)C(=O)N[C@@H]1COc1nccc2cc(C(N)=O)c(OC)cc12` the IC50 was 3.8 µM (Calcium/calmodulin-dependent protein kinase kinase 2 (CAMKK2, Homo sapiens, UniProt Q96RR4); ATP-site probe binding, inhibitor, ActivX ATP probe profiling; THP-1 cell lysate; probe site Lys1).
`C[C@@H](c1cc(Cl)cc(Cl)c1)N(C)c1ncc2c(N)nc(N)nc2n1` gave a Kd of 0.000912 µM (GAP50; binding, surface plasmon resonance; 1:1 binding model).
`O=C(O)CNc1ncnc2ccccc12` gave a Kd of greater than 1000 µM (USP51 ZnF-UBD domain).
`CC(C)Cn1c(=O)n(C)c(=O)c2c(-c3cncn3C)n(Cc3cccc4ccccc34)nc21` gave a Kd of 7.56 µM (GAP50; binding, surface plasmon resonance; 1:1 binding model).
`O=C(COc1ccc(Cl)cc1Cl)Nc1cc(C2CCC2)nn1CC(F)(F)F` has an EC50 of greater than 10 µM (Kir3.1/Kir3.2; activator, thallium flux; HEK293).
